{"data": "Experimental data from different studies", "note": "Each line is one published result; not all experiments were run side by side. ± gives the spread as reported."}
{"Structure (SMILES)": "Nc1cc(-c2ccccc2)ccc1Cn1cncc1CNc1ccc(Cl)c(-c2ccccc2)c1", "system": "female BALB/c mice, plasma", "setting": "oral, 50 mg/kg single dose", "Tmax": "0.5 h"}
{"Structure (SMILES)": "COc1cc(CCC(C)=O)ccc1O", "system": "obese male C57BL/6J mice, plasma", "setting": "oral, 200 mg/kg", "Tmax": "0.833 ± 0.167 h"}
{"Structure (SMILES)": "COc1ccc(NC(=O)N2CCCCN3[C@H](CN(C)C)[C@H](c4ccc(C#Cc5ccccc5)cc4)[C@@H]3C2)cc1", "system": "CD-1 mice, plasma", "setting": "oral, 10 mg/kg", "Tmax": "8 h"}
{"Structure (SMILES)": "CCOc1cc(C(C)(C)C)ccc1C1=N[C@@](C)(c2ccc(Cl)cc2)[C@@](C)(c2ccc(Cl)cc2)N1C(=O)N1CCN(CCCS(C)(=O)=O)CC1", "system": "athymic nude mice, orthotopic GBM, tumour-bearing brain hemisphere", "setting": "oral, 100 mg/kg", "Tmax": "2 h"}
{"Structure (SMILES)": "CO[C@H]1C[C@@H]2CC[C@@H](C)[C@@](O)(O2)C(=O)C(=O)N2CCCC[C@H]2C(=O)O[C@H]([C@H](C)C[C@@H]2CC[C@@H](O)[C@H](OC)C2)CC(=O)[C@H](C)/C=C(\\C)[C@@H](O)[C@@H](OC)C(=O)[C@H](C)C[C@H](C)/C=C/C=C/C=C/1C", "system": "NOD/SCID mice, male, blood or plasma", "setting": "intraperitoneal, 0.5 mg/kg every 48 h", "Tmax": "1 h"}
{"Structure (SMILES)": "OCCc1ccc(O)cc1", "system": "Balb/c tumour-bearing mice, plasma", "setting": "oral, 109.2 mg/kg SNZ", "Tmax": "0.533 h"}
{"Structure (SMILES)": "CN1CCN(c2ccc3nc(-c4c(N)c5c(F)cccc5[nH]c4=O)[nH]c3c2)CC1", "system": "NOD/SCID mice, male, blood or plasma", "setting": "oral, 30 mg/kg once daily, day 1", "Tmax": "6 h"}
{"Structure (SMILES)": "Nc1cc(-c2ccccc2)ccc1Cn1cncc1CNc1ccc(-c2nc3ccccc3s2)c(-c2ccccc2)c1", "system": "female BALB/c mice, plasma", "setting": "oral, 50 mg/kg single dose", "Tmax": "1 h"}
{"Structure (SMILES)": "OC[C@H]1O[C@@H](OCCc2ccc(O)cc2)[C@H](O)[C@@H](O)[C@@H]1O", "system": "Balb/c tumour-bearing mice, plasma", "setting": "oral, 109.2 mg/kg SNZ", "Tmax": "0.3 h"}
{"Structure (SMILES)": "CN1CCN(c2ccc(Nc3ncc4cc(C#N)c(=O)n(C5CCCC5)c4n3)cc2)CC1", "system": "NIH Swiss nude mice, intracerebral U87 tumour, brain", "setting": "intravenous, 25 mg/kg, with: gefitinib 200 mg/kg oral 1 h before", "Tmax": "0.25 h"}
{"Structure (SMILES)": "Cn1cnc2c(F)c(Nc3ccc(Br)cc3Cl)c(C(=O)NOCCO)cc21", "system": "nude mice with A-375 tumours, plasma", "setting": "oral, 10 mg/kg once daily, 7 days, steady state", "Tmax": "1 h"}
{"Structure (SMILES)": "OCCc1ccc(O)c(O)c1", "system": "obese male C57BL/6J mice, plasma", "setting": "oral, 200 mg/kg", "Tmax": "0.417 ± 0.0833 h"}
{"Structure (SMILES)": "O=C(c1ccc(OCCN2CCCCC2)cc1)c1c(-c2ccc(O)cc2)sc2cc(O)ccc12", "system": "C57BL/6 mice male, plasma", "setting": "oral, 20 mg/kg, median", "Tmax": "2 h"}
{"note": "A few entries again:"}
{"Structure (SMILES)": "CO[C@H]1C[C@@H]2CC[C@@H](C)[C@@](O)(O2)C(=O)C(=O)N2CCCC[C@H]2C(=O)O[C@H]([C@H](C)C[C@@H]2CC[C@@H](O)[C@H](OC)C2)CC(=O)[C@H](C)/C=C(\\C)[C@@H](O)[C@@H](OC)C(=O)[C@H](C)C[C@H](C)/C=C/C=C/C=C/1C", "system": "NOD/SCID mice, male, blood or plasma", "setting": "intraperitoneal, 0.5 mg/kg every 48 h", "Tmax": "1 h"}
{"Structure (SMILES)": "CN1CCN(c2ccc(Nc3ncc4cc(C#N)c(=O)n(C5CCCC5)c4n3)cc2)CC1", "system": "NIH Swiss nude mice, intracerebral U87 tumour, brain", "setting": "intravenous, 25 mg/kg, with: gefitinib 200 mg/kg oral 1 h before", "Tmax": "0.25 h"}
